Published values pooled from the literature.
Every numbered part comes from another study and shows a few of its results, in no order.

Set 1
Target: Histone acetyltransferase KAT6A, winged helix 2, GST fusion (KAT6A, Homo sapiens, UniProt Q92794, residues 85-181)
Technique: protein binding microarray
Form: double-stranded DNA, one strand shown
Medium: in vitro
Concentration: not given
Setting: 8-mer, flanks averaged, mean of 2 arrays, mostly near background
Reference: not given
Direction: higher = stronger binding
Residues (chain): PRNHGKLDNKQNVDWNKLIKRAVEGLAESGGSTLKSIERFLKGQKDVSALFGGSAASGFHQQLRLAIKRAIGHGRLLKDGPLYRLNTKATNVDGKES
Oligonucleotide	E-score
CTAACTGA	0.0678
GATGTTGA	-0.115
AAAATACA	-0.0136
CTACGGAG	0.0243
CCACTTCC	0.0237
CAATGAGC	-0.00165
AACATTGG	-0.186
ACCAAAGT	-0.109

Set 2
Target: Interferon regulatory factor 3, full length, phosphomimetic (IRF3, Homo sapiens, UniProt Q14653, residues 1-427, S386D/S396D/S398D/S402D/T404D/S405D)
Technique: protein-binding microarray
Form: double-stranded DNA, one strand shown
Medium: in vitro
Concentration: 2540 nM top
Setting: 60-bp whole probe
With: salmon DNA 0.4 mg/ml
Reference: random background probes
Direction: higher = stronger binding
All sequences stand within: GCCTAGCAC … GTCTTGATTCGCTTGACGCTGCTG
Construct (chain): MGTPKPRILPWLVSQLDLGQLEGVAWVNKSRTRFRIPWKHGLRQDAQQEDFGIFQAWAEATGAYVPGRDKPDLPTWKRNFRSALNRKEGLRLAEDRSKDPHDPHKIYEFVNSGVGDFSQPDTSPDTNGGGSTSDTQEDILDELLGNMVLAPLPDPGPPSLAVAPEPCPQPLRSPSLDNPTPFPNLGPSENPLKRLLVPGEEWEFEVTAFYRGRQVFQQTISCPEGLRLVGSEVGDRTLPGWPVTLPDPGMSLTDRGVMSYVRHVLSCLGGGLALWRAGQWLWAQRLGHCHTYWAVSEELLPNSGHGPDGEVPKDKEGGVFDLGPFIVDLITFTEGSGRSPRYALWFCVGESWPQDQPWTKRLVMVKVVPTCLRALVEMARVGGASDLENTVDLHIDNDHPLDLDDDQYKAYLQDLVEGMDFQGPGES
Oligonucleotide	fitted relative affinity [z-score]
GACGGACTGGACACTGGAGACGTGCTA	-0.603
TTATGTTTCGGTTTCGGTTAGTGCTAG	11.3
GACGGTATCAGTCTCGAGACGTGCTAG	3.71
GACAAACTGGGGTTTCGAGACGTGCTA	0.416
TTAGGTTTCAACACTGGGTTAGTGCTA	0.616
GTAGGTATCGGGTATCGGTTAGTGCTA	2.05

Set 3
Target: Centromere-binding protein 1, full length, His-tagged (CBF1, Saccharomyces cerevisiae, UniProt P17106, residues 1-351)
Sequence of UniProt P17106 (whole entry, looked up): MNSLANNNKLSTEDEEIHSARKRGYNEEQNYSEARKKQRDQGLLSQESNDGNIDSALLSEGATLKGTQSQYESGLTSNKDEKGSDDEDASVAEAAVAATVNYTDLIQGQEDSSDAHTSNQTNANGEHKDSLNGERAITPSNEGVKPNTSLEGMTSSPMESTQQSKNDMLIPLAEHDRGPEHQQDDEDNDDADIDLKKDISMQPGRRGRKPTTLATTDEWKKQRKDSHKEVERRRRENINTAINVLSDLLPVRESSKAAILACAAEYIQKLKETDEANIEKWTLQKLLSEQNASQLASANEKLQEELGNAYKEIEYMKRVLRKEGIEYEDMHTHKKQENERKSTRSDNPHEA
Technique: competition protein-binding microarray
Form: double-stranded DNA, one strand shown
Medium: in vitro
Concentration: 2 µM
Setting: whole 60-bp probe, lowest competitor level
With: Pho4 competitor, 0.05 µM
Direction: higher = stronger binding
All sequences stand within: … GTCTTGATTCGCTTGACGCTGCTG
Oligonucleotide	fluorescence intensity [a.u.]
AGAGCTGCGGGCATGGACGTGCCGATTATTCCCGGG	69.6
CTTCTGTAAATTTGAAGTGTGGGTGGACGCGCCCCG	82.6
CTTTCCCGATCTTGCCAGGTGGGTGTAGCACATTTG	65.7
TGGACAGCGCTTCCCAGCGTGCTTTACATAATGCTT	77.8
TGCTGCATTTCTCACCACGTCCTGGTGGGAGTTTCC	63.1

Single results of other studies
Molecule	target	assay	system	conditions	how to read	quantity	value
PhoQ, residues 284 288 289 292 302 303 AGGLSV	PhoP, residues 12 14 15 18 19 HHYTI (Escherichia coli, UniProt P23836)	Sort-seq, measured: YFP reporter	E. coli	PhoQ-PhoP variant library, with: 10 µM Mg2+	reference: high Mg2+ state, higher = stronger signaling	fold induction	0.479

Repeated from above (set 3):
Oligonucleotide	fluorescence intensity [a.u.]
CTTCTGTAAATTTGAAGTGTGGGTGGACGCGCCCCG	82.6
CTTTCCCGATCTTGCCAGGTGGGTGTAGCACATTTG	65.7
